Measurements collected from several papers.
Protocols differ between the studies behind these lines. Numbers after ± are the reported error.

| Compound | cell line | host | route | dose | time | notes | tumour growth inhibition |
| --- | --- | --- | --- | --- | --- | --- | --- |
| CCCCc1nc2cc(/C=C/C(=O)NO)ccc2n1CCN(CC)CC |  | mouse, MOLM-13 subcutaneous xenograft |  | 125 mg/kg every other day | day 7 |  | 42% |
| C=CC(=O)Nc1cc(Nc2nccc(Nc3cc(Cl)c(F)cc3C(C)(C)O)n2)c(OC)cc1N1CC[C@@H](N(C)C)C1 | NCI-H2073 parental, EGFR wild type | BALB/c nude mouse, NCI-H2073 xenograft |  | 25 mg/kg twice daily | 21 days |  | 91.6% |
| COCc1cc(C(=O)Nc2cc([C@H]3CC[C@@H](OC(=O)NC(C)C)C3)[nH]n2)n(C)n1 | MCF7 xenograft | NSG mouse | oral twice daily | medium dose |  |  | 64% |
| C[C@]12CC[C@H](n3ccnc3)CC1=CC[C@@H]1[C@@H]2CC[C@]2(C)C(n3cnc4ccccc43)=CC[C@@H]12.Cl.Cl |  | mouse CWR22Rv1 xenograft | oral | 5 mg/kg once daily | 16 days | 5 days per week | 79.2% |
| C[C@@H]1COCCN1c1cc([C@]2(O)C[C@H]3CC[C@@H](C2)O3)c2cnn(-c3cc[nH]n3)c2n1 | SUM149PT xenograft | mouse |  | 15 mg/kg QD x3 | day 42 |  | 71.2 ± 2.4% |
| O=C1CC[C@H](N2Cc3cc(N4CCN(CC5CCN(c6ccc([C@@H]7c8ccc(O)cc8CC[C@@H]7c7ccccc7)cc6)CC5)CC4)ccc3C2=O)C(=O)N1 |  | mouse MCF7 orthotopic xenograft | oral | 10 mg/kg once daily | 28 days |  | 98% |
| COc1ccc(F)cc1C(=O)NCc1ccc(-c2nn([C@@H](C)C(F)(F)F)c(N)c2C(N)=O)cc1 |  | mouse Rec1 xenograft | oral | 30 mg/kg twice daily |  |  | 84% |
| Cl.O=C(c1cc(Cc2n[nH]c(=O)c3ccccc23)ccc1F)N1CC(CNC2CC2)C1 |  | BALB/c nude mouse, CAPAN-1 xenograft | oral | 200 mg/kg once daily | 28 days |  | 111% |

Excerpt of the above:
| Compound | cell line | host | route | dose | time | notes | tumour growth inhibition |
| --- | --- | --- | --- | --- | --- | --- | --- |
| COc1ccc(F)cc1C(=O)NCc1ccc(-c2nn([C@@H](C)C(F)(F)F)c(N)c2C(N)=O)cc1 |  | mouse Rec1 xenograft | oral | 30 mg/kg twice daily |  |  | 84% |
